Experimental data collected from several papers.
Protocols differ between the studies behind these lines. ± gives the spread as reported.

`CCCC[C@H](NC(=O)CNC(=O)CNC(=O)CN1CCN(CC(=O)O)CCN(CC(=O)O)CCN(CC(=O)O)CC1)C(=O)N[C@H]1CC(=O)NCCCC[C@@H](C(N)=O)NC(=O)[C@H](Cc2c[nH]c3ccccc23)NC(=O)[C@H](CCCNC(=N)N)NC(=O)[C@@H](Cc2ccccc2)NC(=O)[C@H](Cc2c[nH]cn2)NC1=O` [copper-64 labelled] gave a tissue uptake of 12.5 ± 2.98 %ID (C57 mouse female B16/F1 melanoma, intestines; intravenous, 0.037 MBq, 4 h).
For `CC(C)[C@H](NC(=O)[C@@H]1CCCN1C(=O)[C@H](CCCNC(=N)N)NC(=O)[C@H](CS)NC(=O)[C@H](Cc1c[nH]c2ccccc12)NC(=O)[C@H](CCCNC(=N)N)NC(=O)[C@@H](Cc1ccccc1)NC(=O)[C@H](Cc1c[nH]cn1)NC(=O)[C@H](CCC(=O)O)NC(=O)[C@H](CS)NC(=O)[C@H](CS)NC(=O)[C@@H]1CC(=O)N[C@@H](CCCNC(=N)N)C(=O)NCC(=O)N[C@@H](CC(=O)O)C(=O)N[C@H](Cc2ccc(O)cc2)C(=O)N1)C(N)=O` [technetium-99m labelled], the tissue uptake was 0.85 ± 0.19 %ID/g (C57 mouse, female, B16/F1 melanoma, stomach; intravenous, 0.037 MBq, 4 h).
`O=C([O-])CN1CCN(CC(=O)[O-])CCN(CC(=O)NCCc2ccc3c(c2)C2C=CCC2C(c2cc4c(cc2Br)OCO4)N3)CCN(CC(=O)[O-])CC1.[111In+3]` (centres unmarked) has a tissue uptake of 19.4 ± 5.22 %ID/g (mouse, Hec50 endometrial tumour, small intestine; 1 h post injection).
For `CCCC[C@H](NC(=O)CNC(=O)CNC(=O)CN1CCN(CC(=O)O)CCN(CC(=O)O)CCN(CC(=O)O)CC1)C(=O)N[C@H]1CC(=O)NCCCC[C@@H](C(N)=O)NC(=O)[C@H](Cc2c[nH]c3ccccc23)NC(=O)[C@H](CCCNC(=N)N)NC(=O)[C@@H](Cc2ccccc2)NC(=O)[C@H](Cc2c[nH]cn2)NC1=O` [lead-203 labelled], the tissue uptake was 1.04 ± 0.21 %ID/g (C57 mouse, liver; intravenous, 0.056 MBq, 24 h).
The tissue uptake of `OCc1cn(Cc2ccc(-c3noc(-c4ccc(OCC[18F])c(C(F)(F)F)c4)n3)cc2)nn1` is reported as 0.69 ± 0.08 %ID/g (female Lewis rat, thymus; intravenous, 5 min).
With `CN1C(=O)[C@@H](Cc2ccc(O)c(I)c2)NC(=O)CNC(=O)[C@H](Cc2ccc3ccccc3c2)NC(=O)[C@H](CCCNC(=N)N)NC(=O)[C@H]1CCCNC(=O)c1ccc(CNC(=O)CN2CCN(CC(=O)O)CCN(CC(=O)O)CCN(CC(=O)O)CC2)cc1` [lutetium-177 labelled] the tissue uptake was 0.25 ± 0.1 %ID/g (measured: 177Lu radioactivity; female CB-17 SCID mice, Daudi xenograft, large intestine; intravenous, 0.16 nmol per mouse, 48 h).
For `CCCC[C@@H]1NC(=O)[C@@H](NC(=O)[C@H](CCC(=O)O)NC(=O)CNC(=O)CN2CCN(CC(=O)O)CCN(CC(=O)O)CCN(CC(=O)O)CC2)CCCCNC(=O)C[C@@H](C(N)=O)NC(=O)[C@H](C(C)C)NC(=O)[C@@H]2CCCN2C(=O)[C@H](CCCNC(=N)N)NC(=O)CNC(=O)[C@H](Cc2c[nH]c3ccccc23)NC(=O)[C@H](CCCNC(=N)N)NC(=O)[C@@H](Cc2ccccc2)NC(=O)[C@H](Cc2c[nH]cn2)NC(=O)[C@H](CCC(=O)O)NC1=O` [gallium-67 labelled], the tissue uptake was 0.04 ± 0.01 %ID/g (C57 mice with B16/F1 melanoma, muscle; intravenous, 0.037 MBq, 4 h).
For `CC(C)[C@H](NC(=O)[C@@H]1CCCN1C(=O)[C@H](CCCNC(=N)N)NC(=O)[C@H](CS)NC(=O)[C@H](Cc1c[nH]c2ccccc12)NC(=O)[C@H](CCCNC(=N)N)NC(=O)[C@@H](Cc1ccccc1)NC(=O)[C@H](Cc1c[nH]cn1)NC(=O)[C@H](CCC(=O)O)NC(=O)[C@H](CS)NC(=O)[C@H](CS)NC(=O)CNC(=O)[C@@H]1CC(=O)N[C@@H](CCCNC(=N)N)C(=O)NCC(=O)N[C@@H](CC(=O)O)C(=O)N[C@H](Cc2ccc(O)cc2)C(=O)N1)C(N)=O` [technetium-99m labelled], the tissue uptake was 2.32 ± 1.1 %ID/g (C57 mouse, female, B16/F1 melanoma, spleen; intravenous, 0.037 MBq, 0.5 h).
